Values quoted from earlier work that unrelated publications cite.
Compare with care: the assays were run in different laboratories. Numbers after ± are the reported error.
Sequence of UniProt Q15569 (whole entry, looked up): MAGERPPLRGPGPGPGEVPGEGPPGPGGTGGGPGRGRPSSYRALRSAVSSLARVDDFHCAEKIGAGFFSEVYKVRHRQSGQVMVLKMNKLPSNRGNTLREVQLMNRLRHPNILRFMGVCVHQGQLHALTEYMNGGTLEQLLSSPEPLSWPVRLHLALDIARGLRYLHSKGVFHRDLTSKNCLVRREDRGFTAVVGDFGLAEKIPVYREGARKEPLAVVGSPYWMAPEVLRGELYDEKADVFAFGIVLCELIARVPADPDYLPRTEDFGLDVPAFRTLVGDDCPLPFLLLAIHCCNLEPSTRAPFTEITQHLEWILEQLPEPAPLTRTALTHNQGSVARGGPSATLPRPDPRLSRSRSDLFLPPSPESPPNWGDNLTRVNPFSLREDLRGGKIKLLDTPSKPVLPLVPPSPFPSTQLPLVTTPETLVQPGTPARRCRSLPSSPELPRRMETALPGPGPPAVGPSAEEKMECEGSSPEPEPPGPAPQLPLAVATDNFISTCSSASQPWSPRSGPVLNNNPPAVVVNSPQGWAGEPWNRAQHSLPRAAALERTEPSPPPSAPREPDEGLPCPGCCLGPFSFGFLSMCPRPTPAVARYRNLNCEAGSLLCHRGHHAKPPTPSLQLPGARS

For `CC(C)(CO)c1cc2cc(NC(=O)C3(c4ccc5c(c4)OC(F)(F)O5)CC3)c(F)cc2n1C[C@@H](O)CO`, the Cmax was 7.7 mg/L (non-pregnant cystic fibrosis patients, plasma; dose not given).
The Cmax of `c1cnc2cc3c(cc2n1)[C@@H]1CNC[C@H]3C1` is reported as 0.0193 nM (plasma; concentration not given, total concentration).
`Nc1cc(C(F)(F)F)c(-c2nc(N3CCOCC3)nc(N3CCOCC3)n2)cn1` gave a remaining activity of 83% (TESK1 (Homo sapiens, UniProt Q15569); enzyme activity; 10 µM; relative to: untreated).
The Cmax of `O=C1Nc2ccc(Cl)cc2[C@@](C#CC2CC2)(C(F)(F)F)O1` is reported as 12600 nM (plasma; concentration not given, total, steady state).
`CC(C)NCC(O)COc1cccc2ccccc12` (stereo not drawn) gave a Cmax of 95 nM (plasma; concentration not given, total concentration).
With `CCCCC(=O)N(Cc1ccc(-c2ccccc2-c2nnn[nH]2)cc1)[C@H](C(=O)O)C(C)C` the Cmax was 14800 nM (plasma; concentration not given).
The Cmax of `COc1cc(N2CCC(N3CCN(C)CC3)CC2)ccc1Nc1ncc(Cl)c(Nc2ccccc2P(C)(C)=O)n1` is reported as 0.826 mg/L (healthy subjects; 180 mg, single dose alone, rifampin study).
The Cmax of `CCCCc1oc2ccccc2c1C(=O)c1cc(I)c(OCCN(CC)CC)c(I)c1` is reported as 3500 nM (plasma; concentration not given, total, steady state).
For `N[C@@H]1c2cccnc2[C@H](OC(=O)N2CCC(n3c(=O)[nH]c4ncccc43)CC2)CC[C@H]1c1cccc(F)c1F`, the Cmax was 1200 nM (plasma; 75 mg).
For `CC(C)(C)c1cc(C(C)(C)C)c(NC(=O)c2c[nH]c3ccccc3c2=O)cc1O`, the Cmax was 1.2 mg/L (non-pregnant cystic fibrosis patients, plasma; dose not given).
With `CC(=O)Oc1ccccc1C(=O)Nc1ncc([N+](=O)[O-])s1` the Cmax was 31200 nM (plasma; concentration not given).
For `CC(=O)O[C@@]12CO[C@@H]1C[C@H](O)[C@@]1(C)C(=O)[C@H](O)C3=C(C)[C@@H](OC(=O)[C@H](O)[C@@H](NC(=O)OC(C)(C)C)c4ccccc4)C[C@@](O)([C@@H](OC(=O)c4ccccc4)[C@H]21)C3(C)C`, the Cmax was 2970 nM (plasma; concentration not given, total, steady state).
With `O=C(O)c1cc(-c2ccc(F)cc2F)ccc1O` the Cmax was 496000 nM (plasma; concentration not given).
`CNCC[C@@H](Oc1ccccc1C)c1ccccc1` gave a Cmax of 2780 nM (plasma; concentration not given, total, literature data).
With `COc1ccnc(C[S+]([O-])c2nc3ccc(OC(F)F)cc3[nH]2)c1OC` (stereo not drawn) the Cmax was 6000 nM (plasma; concentration not given, total, steady state).
The Cmax of `CCC(=O)NC[C@@H]1C[C@H]1c1cccc2c1CCO2` is reported as 235 nM (plasma; concentration not given, total concentration).
`CC[C@H](C)C(=O)O[C@H]1C[C@@H](C)C=C2C=C[C@H](C)[C@H](CC[C@@H]3C[C@@H](O)CC(=O)O3)[C@H]21` gave a Cmax of 100 nM (plasma; concentration not given, total, steady state).
The Cmax of `CN[C@H]1CC[C@@H](c2ccc(Cl)c(Cl)c2)c2ccccc21` is reported as 83.3 nM (plasma; concentration not given, total concentration).
With `CCCCC[C@H](O)CC[C@@H]1[C@H]2Cc3cccc(OCC(=O)O)c3C[C@H]2C[C@H]1O` the Cmax was 0.00035 ± 0.00014 mg/L (non-Japanese healthy adults; 18 µg).
`O=C1NCCN1CCN1CCC(c2cn(-c3ccc(F)cc3)c3ccc(Cl)cc23)CC1` gave a Cmax of 131 nM (plasma; concentration not given, total concentration).
The Cmax of `Cc1nc(Nc2ncc(C(=O)Nc3c(C)cccc3Cl)s2)cc(N2CCN(CCO)CC2)n1` is reported as 130 nM (plasma; concentration not given, total, steady state).

Repeated from above:
With `COc1ccnc(C[S+]([O-])c2nc3ccc(OC(F)F)cc3[nH]2)c1OC` (stereo not drawn) the Cmax was 6000 nM (plasma; concentration not given, total, steady state).
The Cmax of `CCC(=O)NC[C@@H]1C[C@H]1c1cccc2c1CCO2` is reported as 235 nM (plasma; concentration not given, total concentration).
